Assay results collected from several papers.
Each numbered part is a random draw from the data of one study; scales do not carry over between parts. “And” joins repeats or separate records; there may be more than shown.
Sequence of UniProt Q00532 (whole entry, looked up): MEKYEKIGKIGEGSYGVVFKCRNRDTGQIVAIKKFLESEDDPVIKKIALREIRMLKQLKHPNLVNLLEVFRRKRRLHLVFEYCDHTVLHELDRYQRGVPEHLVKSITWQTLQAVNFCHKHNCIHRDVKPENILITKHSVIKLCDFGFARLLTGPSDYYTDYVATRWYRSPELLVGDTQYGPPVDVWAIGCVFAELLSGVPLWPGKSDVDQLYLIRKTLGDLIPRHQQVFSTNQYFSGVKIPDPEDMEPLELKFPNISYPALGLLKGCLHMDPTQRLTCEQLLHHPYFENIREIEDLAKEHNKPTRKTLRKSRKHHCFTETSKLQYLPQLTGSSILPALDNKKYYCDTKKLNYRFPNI
Sequence of UniProt P35968 (whole entry, looked up): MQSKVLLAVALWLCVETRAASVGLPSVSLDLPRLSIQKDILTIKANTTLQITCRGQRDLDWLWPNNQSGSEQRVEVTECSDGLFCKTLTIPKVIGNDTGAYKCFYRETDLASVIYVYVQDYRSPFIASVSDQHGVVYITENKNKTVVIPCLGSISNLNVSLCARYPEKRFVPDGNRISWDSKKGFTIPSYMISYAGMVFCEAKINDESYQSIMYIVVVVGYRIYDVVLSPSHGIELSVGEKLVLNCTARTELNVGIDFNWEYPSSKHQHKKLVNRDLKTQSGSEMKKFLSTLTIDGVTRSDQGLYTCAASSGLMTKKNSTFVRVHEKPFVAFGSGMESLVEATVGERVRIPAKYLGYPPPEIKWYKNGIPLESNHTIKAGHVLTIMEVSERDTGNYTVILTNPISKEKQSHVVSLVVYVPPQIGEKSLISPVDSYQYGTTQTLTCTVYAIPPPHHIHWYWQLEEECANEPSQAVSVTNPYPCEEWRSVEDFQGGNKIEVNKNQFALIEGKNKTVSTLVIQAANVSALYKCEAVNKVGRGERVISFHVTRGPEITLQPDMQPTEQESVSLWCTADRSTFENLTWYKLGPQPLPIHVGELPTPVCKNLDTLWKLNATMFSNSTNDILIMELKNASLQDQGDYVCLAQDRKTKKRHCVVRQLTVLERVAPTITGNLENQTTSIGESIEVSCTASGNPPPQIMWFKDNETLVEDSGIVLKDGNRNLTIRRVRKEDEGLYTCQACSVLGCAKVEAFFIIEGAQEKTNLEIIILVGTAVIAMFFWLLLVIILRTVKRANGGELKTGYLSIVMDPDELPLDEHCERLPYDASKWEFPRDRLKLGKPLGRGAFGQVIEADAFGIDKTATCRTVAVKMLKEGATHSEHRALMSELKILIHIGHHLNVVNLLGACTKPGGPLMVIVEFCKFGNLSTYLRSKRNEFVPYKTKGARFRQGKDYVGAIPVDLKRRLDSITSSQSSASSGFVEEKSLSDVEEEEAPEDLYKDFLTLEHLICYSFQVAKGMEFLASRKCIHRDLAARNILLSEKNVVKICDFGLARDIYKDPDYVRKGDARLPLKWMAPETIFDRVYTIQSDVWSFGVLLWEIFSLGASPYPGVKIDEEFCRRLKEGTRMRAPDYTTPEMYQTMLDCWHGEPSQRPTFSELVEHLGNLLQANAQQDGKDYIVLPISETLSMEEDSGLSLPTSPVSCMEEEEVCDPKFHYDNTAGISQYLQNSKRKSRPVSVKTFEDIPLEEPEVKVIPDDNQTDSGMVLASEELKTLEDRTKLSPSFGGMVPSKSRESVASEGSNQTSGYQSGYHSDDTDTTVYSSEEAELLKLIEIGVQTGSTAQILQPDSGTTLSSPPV
Sequence of UniProt O14757 (whole entry, looked up): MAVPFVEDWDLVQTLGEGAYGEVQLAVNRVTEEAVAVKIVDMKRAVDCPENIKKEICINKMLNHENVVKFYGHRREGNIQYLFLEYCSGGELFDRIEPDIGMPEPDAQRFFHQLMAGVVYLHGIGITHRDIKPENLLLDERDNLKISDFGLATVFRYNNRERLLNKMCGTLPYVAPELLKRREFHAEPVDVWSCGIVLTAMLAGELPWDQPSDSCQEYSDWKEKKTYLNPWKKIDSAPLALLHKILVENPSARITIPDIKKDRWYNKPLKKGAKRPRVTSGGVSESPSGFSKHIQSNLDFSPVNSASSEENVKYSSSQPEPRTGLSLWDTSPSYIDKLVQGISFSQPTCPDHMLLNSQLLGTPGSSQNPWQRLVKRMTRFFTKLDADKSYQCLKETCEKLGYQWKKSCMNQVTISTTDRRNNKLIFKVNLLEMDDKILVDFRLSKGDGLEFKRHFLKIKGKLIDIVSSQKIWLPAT
Sequence of UniProt P46734 (whole entry, looked up): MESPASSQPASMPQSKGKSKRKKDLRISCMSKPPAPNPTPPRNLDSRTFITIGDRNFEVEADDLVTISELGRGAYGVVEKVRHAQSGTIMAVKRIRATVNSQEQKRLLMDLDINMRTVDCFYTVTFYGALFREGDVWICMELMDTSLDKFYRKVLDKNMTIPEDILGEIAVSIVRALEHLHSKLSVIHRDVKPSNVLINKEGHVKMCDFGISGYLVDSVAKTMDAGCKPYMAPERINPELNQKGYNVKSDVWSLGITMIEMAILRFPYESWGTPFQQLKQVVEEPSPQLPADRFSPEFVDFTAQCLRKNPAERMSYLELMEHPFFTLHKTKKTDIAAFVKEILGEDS
Sequence of UniProt O75914 (whole entry, looked up): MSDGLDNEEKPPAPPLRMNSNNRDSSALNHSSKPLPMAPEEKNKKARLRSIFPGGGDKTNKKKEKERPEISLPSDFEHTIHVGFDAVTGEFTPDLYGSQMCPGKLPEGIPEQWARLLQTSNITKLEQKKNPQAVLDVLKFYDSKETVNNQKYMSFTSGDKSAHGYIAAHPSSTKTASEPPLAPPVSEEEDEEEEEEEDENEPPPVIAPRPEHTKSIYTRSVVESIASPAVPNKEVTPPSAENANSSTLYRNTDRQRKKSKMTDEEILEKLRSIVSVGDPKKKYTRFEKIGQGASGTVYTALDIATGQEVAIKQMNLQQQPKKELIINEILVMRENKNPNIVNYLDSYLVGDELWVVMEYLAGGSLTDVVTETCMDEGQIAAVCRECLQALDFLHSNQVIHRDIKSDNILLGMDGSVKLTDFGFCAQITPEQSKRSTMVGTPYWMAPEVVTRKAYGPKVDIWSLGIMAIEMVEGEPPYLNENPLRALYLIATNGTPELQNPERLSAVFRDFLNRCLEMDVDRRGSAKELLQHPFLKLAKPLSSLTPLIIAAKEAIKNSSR
Sequence of UniProt O43353 (whole entry, looked up): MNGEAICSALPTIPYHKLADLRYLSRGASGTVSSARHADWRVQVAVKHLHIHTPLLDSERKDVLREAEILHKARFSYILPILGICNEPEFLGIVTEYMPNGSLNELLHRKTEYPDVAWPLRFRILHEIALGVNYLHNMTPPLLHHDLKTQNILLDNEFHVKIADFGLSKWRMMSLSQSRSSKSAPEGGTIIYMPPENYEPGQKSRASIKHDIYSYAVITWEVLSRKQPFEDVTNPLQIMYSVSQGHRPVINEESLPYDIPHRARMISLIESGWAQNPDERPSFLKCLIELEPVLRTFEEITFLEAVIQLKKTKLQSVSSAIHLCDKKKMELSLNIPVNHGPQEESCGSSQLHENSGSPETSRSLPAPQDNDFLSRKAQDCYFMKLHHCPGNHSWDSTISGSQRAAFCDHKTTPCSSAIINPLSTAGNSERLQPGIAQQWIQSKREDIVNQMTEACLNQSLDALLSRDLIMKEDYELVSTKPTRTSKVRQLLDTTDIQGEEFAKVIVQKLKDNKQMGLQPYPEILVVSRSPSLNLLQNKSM

Study 1
Compound: C=C(F)C(=O)N1CCN(c2nc(OC[C@@H]3CCCN3C)nc3c2CCN(c2cccc4cccc(Cl)c24)C3)C[C@@H]1CC#N
Target: GTPase HRas (HRAS, Homo sapiens, UniProt P01112)
Observed: binding
Mode: competitor
Method: NanoBRET
Cell line: HEK293
The normalized BRET was 148% and 189% (20 µM).
153 pM — normalized BRET: 92.1%.
741 nM — normalized BRET: 107% and 104%.

Study 2
Structure (SMILES): O=C(NCc1ncc(C(F)(F)F)cc1Cl)c1ccc2c(c1)C1(CCS(=O)(=O)CC1)[C@@H](C1CC1)N2S(=O)(=O)c1ccc(F)cc1
Method: competition with immobilised ligand
Tested at: 1 µM
Wee1-like protein kinase 2 (WEE2, Homo sapiens, UniProt P0C1S8); cell-free assay — remaining binding: 100%.
It gave 100% for remaining binding (Receptor-interacting serine/threonine-protein kinase 2 (RIPK2, Homo sapiens, UniProt O43353); cell-free assay).
It gave 80% for remaining binding (Vascular endothelial growth factor receptor 2 (KDR, Homo sapiens, UniProt P35968); cell-free assay).
Tyrosine-protein kinase ABL1, non-phosphorylated (ABL1, Homo sapiens, UniProt P00519, F317I); binding — remaining binding: 71%.
For Serine/threonine-protein kinase pim-1 (PIM1, Homo sapiens, UniProt P11309); cell-free assay: remaining binding read 74%.
The remaining binding was 92% (3-phosphoinositide-dependent protein kinase 1 (PDPK1, Homo sapiens, UniProt O15530); cell-free assay).
For TRAF2 and NCK-interacting protein kinase (TNIK, Homo sapiens, UniProt Q9UKE5); cell-free assay: remaining binding read 71%.
It gave 65% for remaining binding (Rhodopsin kinase GRK7 (GRK7, Homo sapiens, UniProt Q8WTQ7); cell-free assay).
It gave 73% for remaining binding (Mitogen-activated protein kinase 10 (MAPK10, Homo sapiens, UniProt P53779); cell-free assay).
For Death-associated protein kinase 2 (DAPK2, Homo sapiens, UniProt Q9UIK4); cell-free assay: remaining binding read 90%.
For Cyclin-dependent kinase 16 (CDK16, Homo sapiens, UniProt Q00536); cell-free assay: remaining binding read 80%.
The remaining binding was 100% (Cyclin-dependent kinase-like 1 (CDKL1, Homo sapiens, UniProt Q00532); cell-free assay).
Phosphatidylinositol 5-phosphate 4-kinase type-2 beta (PIP4K2B, Homo sapiens, UniProt P78356); cell-free assay — remaining binding: 89%.
It gave 100% for remaining binding (Receptor tyrosine-protein kinase erbB-2 (ERBB2, Homo sapiens, UniProt P04626); cell-free assay).
MAP/microtubule affinity-regulating kinase 3 (MARK3, Homo sapiens, UniProt P27448); cell-free assay — remaining binding: 100%.
It gave 100% for remaining binding (Uncharacterized serine/threonine-protein kinase SBK3 (SBK3, Homo sapiens, UniProt P0C264); cell-free assay).
Mitogen-activated protein kinase kinase kinase 1 (MAP3K1, Homo sapiens, UniProt Q13233); cell-free assay — remaining binding: 68%.
Serine/threonine-protein kinase 33 (STK33, Homo sapiens, UniProt Q9BYT3); cell-free assay — remaining binding: 86%.
For Ephrin type-A receptor 3 (EPHA3, Homo sapiens, UniProt P29320); cell-free assay: remaining binding read 67%.
Serine/threonine-protein kinase PAK 3 (PAK3, Homo sapiens, UniProt O75914); cell-free assay — remaining binding: 89%.

Study 3
Structure (SMILES): CN1CCN(C(=O)c2ccc(NC(=O)Nc3ccc(N(C)c4ccnc(Nc5ccc(CS(C)(=O)=O)cc5)n4)cc3)cc2)CC1
For Non-receptor tyrosine-protein kinase TYK2, JH2 (TYK2, Homo sapiens, UniProt P29597); binding, competition with immobilised ligand; 1 µM: remaining binding read 6.5%.
For Serine/threonine-protein kinase Nek6 (NEK6, Homo sapiens, UniProt Q9HC98); binding; 1 µM: remaining binding read 100%.
The remaining binding was 80% (Tyrosine-protein kinase FRK (FRK, Homo sapiens, UniProt P42685); binding, competition with immobilised ligand; 1 µM).
For Receptor-type tyrosine-protein kinase FLT3 (FLT3, Homo sapiens, UniProt P36888, D835V); binding; 1 µM: remaining binding read 1.2%.
Platelet-derived growth factor receptor alpha (PDGFRA, Homo sapiens, UniProt P16234); DiscoverX cell-free binding; 1000 nM — remaining binding: 2%.
For Tyrosine-protein kinase receptor TYRO3 (TYRO3, Homo sapiens, UniProt Q06418); binding; 1 µM: remaining binding read 92%.
The remaining binding was 85% (Serine/threonine-protein kinase Nek4 (NEK4, Homo sapiens, UniProt P51957); binding; 1 µM).
For Beta-adrenergic receptor kinase 1 (GRK2, Homo sapiens, UniProt P25098); binding; 1 µM: remaining binding read 100%.
Calcium/calmodulin-dependent protein kinase kinase 1 (CAMKK1, Homo sapiens, UniProt Q8N5S9); binding; 1 µM — remaining binding: 28%.
For Dual specificity mitogen-activated protein kinase kinase 3 (MAP2K3, Homo sapiens, UniProt P46734); binding; 1 µM: remaining binding read 14%.
It gave 100% for remaining binding (Serine/threonine-protein kinase Chk1 (CHEK1, Homo sapiens, UniProt O14757); binding; 1 µM).
The remaining binding was 100% (Mitogen-activated protein kinase 4 (MAPK4, Homo sapiens, UniProt P31152); binding; 1 µM).
The remaining binding was 100% (Megakaryocyte-associated tyrosine-protein kinase (MATK, Homo sapiens, UniProt P42679); binding; 1 µM).

Study 4
Target: Receptor tyrosine-protein kinase erbB-2 (ERBB2, Homo sapiens, UniProt P04626)
Observed: enzyme activity
Mode: inhibitor
Tested at: 0.5 µM
Baseline: control
For N#C/C(=C\c1ccc(O)c(O)c1)C(=O)NCc1ccccc1, the remaining activity was 97.6%.
With Cc1cn(-c2cc(NC(=O)c3ccc(C)c(Nc4nccc(-c5cccnc5)n4)c3)cc(C(F)(F)F)c2)cn1 the remaining activity was 104%.
With Ic1cccc(CSc2nnc(-c3ccncc3)o2)c1 the remaining activity was 99.6%.
CCN(CC)C(=O)c1ccc(Nc2nc(OCC3CCCCC3)c3[nH]cnc3n2)cc1 gave a remaining activity of 99.4%.
O=C1c2ccccc2-c2n[nH]c3cccc1c23 gave a remaining activity of 98%.
For Cc1cc2ncc(-c3ccccc3)nc2cc1C, the remaining activity was 97.4%.
O=C1C(Cl)=C(N2C(=O)CCC2=O)C(=O)c2ccccc21 has a remaining activity of 95.4%.
COc1cc2ncnc(Nc3ccc(O)c(Br)c3)c2cc1OC has a remaining activity of 33.1%.
With CN(C)C[C@H]1CCn2c(c(C3=C(c4cn(C)c5ccccc45)C(=O)NC3=O)c3ccccc32)C1 the remaining activity was 95.9%.
With CN([C@@H](Cc1ccc(OS(=O)(=O)c2cccc3cnccc23)cc1)C(=O)N1CCN(c2ccccc2)CC1)S(=O)(=O)c1cccc2cnccc12 the remaining activity was 96%.
For N#Cc1c(NC(=O)c2cccc3ccccc23)sc2c1CCCC2, the remaining activity was 97.6%.
The remaining activity of Cc1nc2cc3nc(-c4cccs4)cnc3cc2n1C is reported as 92%.
Cn1nc2c3c(cccc31)C(=O)c1ccccc1-2 has a remaining activity of 96.9%.
O=C(NC(NC(=S)Nc1ccc(F)c([N+](=O)[O-])c1)C(Cl)(Cl)Cl)C(c1ccccc1)c1ccccc1 (stereo not shown) gave a remaining activity of 94.8%.
O=C(Nc1cccc(Nc2nccc(Nc3cccc(C(F)(F)F)c3)n2)c1)C1CC1 has a remaining activity of 93.8%.
For COc1cc2c(cc1OC)-c1[nH]nc(Nc3cccc(F)c3)c1C2, the remaining activity was 101%.
With c1ccc(-c2[nH]ncc2-c2ccnc3ccccc23)nc1 the remaining activity was 106%.
The remaining activity of c1ccc(-c2cnc(Nc3ccc(OCCN4CCCC4)cc3)s2)cc1 is reported as 101%.
The remaining activity of C[C@@H]1CCN(C(=O)CC#N)C[C@@H]1N(C)c1ncnc2[nH]ccc12 is reported as 109%.
With COc1cc2ncnc(Nc3cccc(Cl)c3)c2cc1OC the remaining activity was 22.5%.
With O=c1cc(-c2cccc3c2Sc2ccccc2S3)oc(N2CCOCC2)c1 the remaining activity was 97.3%.
With CCN(CC)CCNC(=O)c1c(C)[nH]c(/C=C2\C(=O)Nc3ccc(F)cc32)c1C the remaining activity was 105%.
CCN(CC)CCNC(=O)c1c(C)[nH]c(/C=C2\C(=O)Nc3ccc(Cl)cc32)c1C gave a remaining activity of 102%.
With CCOc1nc(NC(=O)Cc2cc(OC)ccc2OC)cc(N)c1C#N the remaining activity was 101%.
Nc1cccc(-c2cc3c(Oc4cccc(O)c4)ncnc3[nH]2)c1 gave a remaining activity of 76.6%.

A few entries again (study 3):
For Non-receptor tyrosine-protein kinase TYK2, JH2 (TYK2, Homo sapiens, UniProt P29597); binding, competition with immobilised ligand; 1 µM: remaining binding read 6.5%.
Calcium/calmodulin-dependent protein kinase kinase 1 (CAMKK1, Homo sapiens, UniProt Q8N5S9); binding; 1 µM — remaining binding: 28%.
The remaining binding was 80% (Tyrosine-protein kinase FRK (FRK, Homo sapiens, UniProt P42685); binding, competition with immobilised ligand; 1 µM).
The remaining binding was 100% (Mitogen-activated protein kinase 4 (MAPK4, Homo sapiens, UniProt P31152); binding; 1 µM).
